Experimental data collected from several papers.
Lines come from different studies, so protocols differ. ± gives the spread as reported.
Organism: Acinetobacter baumannii

CC[C@H](C)[C@H](NC(=O)[C@H](C)NC(=O)[C@@H](NC(=O)[C@H](CC(=O)O)NC(=O)[C@H](CCCCN)NC(=O)[C@H](CO)NC(=O)[C@@H](NC(=O)[C@H](CC(N)=O)NC(=O)[C@H](C)NC(=O)[C@@H](NC(=O)[C@H](CCC(=O)O)NC(=O)[C@H](CCCCN)NC(=O)[C@@H](NC(=O)[C@@H](NC(=O)[C@H](Cc1c[nH]cn1)NC(=O)[C@H](CCCCN)NC(=O)[C@@H](NC(=O)[C@H](CCCCN)NC(=O)[C@H](CCCCN)NC(=O)[C@@H](NC(=O)[C@H](CC(C)C)NC(=O)[C@H](CCCCN)NC(=O)[C@H](CC(N)=O)NC(=O)[C@H](Cc1ccccc1)NC(=O)[C@H](CCCNC(=N)N)NC(=O)[C@H](CCCCN)NC(=O)[C@H](CCCNC(=N)N)NC(=O)[C@H](Cc1ccccc1)NC(=O)CN)C(C)C)C(C)C)[C@@H](C)O)[C@@H](C)CC)[C@@H](C)O)C(C)C)C(C)C)C(=O)N[C@H](C(=O)N[C@@H](C)C(=O)NCC(=O)N[C@@H](CO)C(=O)NCC(=O)N[C@H](C(=O)N[C@@H](C)C(=O)N[C@H](C(=O)NCC(=O)N[C@@H](C)C(=O)N[C@@H](C)C(=O)N[C@@H](CCSC)C(N)=O)C(C)C)C(C)C)C(C)C  MIC (broth microdilution; ATCC 19606, CAMHB): 4 µg/mL
CCn1c(-c2ccc(OC)cc2)c(-c2ccc(OC)cc2)n(Cc2c(C)cc(C)cc2C)c1=[Se+][Au-][P+](c1ccccc1)(c1ccccc1)c1ccccc1.[Cl-]  MIC (broth microdilution; carbapenem-resistant; 24 h): 40 µM
CCCCCCCC[C@H]1NC(=O)[C@H](CCN)NC(=O)[C@@H](NC(=O)[C@H](CCN)NC(=O)[C@@H](NC(=O)[C@H](CCN)NC(=O)c2ccc(-c3ccccc3)cc2)[C@@H](C)O)CCNC(=O)[C@H]([C@@H](C)O)NC(=O)[C@H](CCN)NC(=O)[C@H](CCN)NC(=O)[C@H](CC(C)C)NC1=O  MIC (ATCC 19606, CaMHB; 18 h, 37 °C): 4 µg/mL
CC[C@@H](C)[C@@H](NC(=O)[C@@H](C)NC(=O)[C@@H](CCCCN)NC(=O)[C@@H](CC(C)C)NC(=O)[C@@H](C)NC(=O)[C@H](NC(=O)[C@@H](Cc1c[nH]cn1)NC(=O)[C@@H](CC(C)C)NC(=O)[C@H](NC(=O)[C@H](NC(=O)[C@@H](CCCCN)NC(=O)[C@@H](CCCCN)NC(=O)[C@@H](C)NC(=O)[C@@H](CO)NC(=O)[C@@H](CCCCN)NC(=O)[C@@H](Cc1ccccc1)NC(=O)[C@H](NC(=O)[C@@H](CCCCN)NC(=O)[C@@H](CC(C)C)NC(=O)[C@@H](Cc1ccccc1)NC(=O)[C@@H](CO)NC(=O)[C@@H](CCCCN)NC(=O)[C@@H](Cc1c[nH]c2ccccc12)NC(=O)[C@@H](CCCCN)NC(C)=O)[C@H](C)O)[C@H](C)O)C(C)C)[C@H](C)O)C(=O)N[C@H](CO)C(=O)N[C@H](CO)C(N)=O  MIC (899, Mueller-Hinton broth; 24 h, 37 °C): 1.5 µM
CCCCCCCCCCCCCC(=O)N[C@H](CCN)C(=O)N[C@@H]1C(=O)N[C@@H](CCN)C(=O)N[C@@H](CC(C)C)C(=O)N[C@@H](CCN)C(=O)N[C@H](Cc2ccccc2)C(=O)N[C@@H](CC(C)C)C(=O)N[C@@H](CCN)C(=O)N[C@H](CCN)C(=O)N[C@@H](C(C)C)C(=O)N[C@@H](CC(=O)O)C(=O)O[C@@H]1C  MIC (broth microdilution; ATCC BAA-1605, carbapenem-resistant MDR): 2 µg/mL
CC(C)C[C@H](NC(=O)[C@H](Cc1ccc(O)cc1)NC(=O)[C@@H]1CCCN1C(=O)[C@H](CCCNC(=N)N)NC(=O)[C@@H]1CCCN1C(=O)[C@H](CCCCN)NC(=O)[C@H](CC(=O)O)NC(=O)[C@@H]1CCCN1C(=O)[C@H](CCCNC(=N)N)NC(=O)C1(N)CCCCC1)C(=O)N1CCC[C@H]1C(=O)N[C@@H](CCCNC(=N)N)C(=O)N1CCC[C@H]1C(=O)N[C@@H](CCCNC(=N)N)C(=O)N1CCC[C@H]1C(=O)N1CCC[C@H]1C(=O)N[C@@H](CCCNC(=N)N)C(=O)N1CCC[C@H]1C(=O)N[C@H](C(=O)N[C@@H](CCCNC(=N)N)C(=O)N[C@@H](CSCc1cccc(CSC[C@H](NC(=O)[C@H](CCCNC(=N)N)NC(=O)[C@@H](NC(=O)[C@@H]2CCCN2C(=O)[C@H](CCCNC(=N)N)NC(=O)[C@@H]2CCCN2C(=O)[C@@H]2CCCN2C(=O)[C@H](CCCNC(=N)N)NC(=O)[C@@H]2CCCN2C(=O)[C@H](CCCNC(=N)N)NC(=O)[C@@H]2CCCN2C(=O)[C@H](CC(C)C)NC(=O)[C@H](Cc2ccc(O)cc2)NC(=O)[C@@H]2CCCN2C(=O)[C@H](CCCNC(=N)N)NC(=O)[C@@H]2CCCN2C(=O)[C@H](CCCCN)NC(=O)[C@H](CC(=O)O)NC(=O)[C@@H]2CCCN2C(=O)[C@H](CCCNC(=N)N)NC(=O)C2(N)CCCCC2)C(C)C)C(=O)NN)c1)C(=O)NN)C(C)C  MIC (bacterial growth; ATCC 19606, 100% Mueller-Hinton broth; 90 min, 37 °C, strain ATCC 19606): 13.1 ± 0.6 µg/mL
CC[C@H](C)[C@H](NC(=O)[C@H](CCCN)NC(=O)[C@H](CC(N)=O)NC(=O)[C@H](CC(C)C)NC(=O)[C@H](Cc1ccccc1)NC(=O)[C@H](CCCN)NC(=O)[C@H](CCCNC(=N)N)NC(=O)[C@H](CC(C)C)NC(=O)[C@H](CC(C)C)NC(=O)[C@H](CCCN)NC(=O)[C@H](CCCNC(=N)N)NC(=O)[C@H](CC(C)C)NC(=O)CNC(C)=O)C(=O)N[C@@H](CCCN)C(=O)N[C@@H](CCCNC(=N)N)C(N)=O  MIC (bacterial growth, broth microdilution; multidrug-resistant): 6.25 µM
CC(C)C[C@@H]1NC(=O)[C@@H](CC(C)C)NC(=O)[C@H](CCN)NC(=O)[C@@H](NC(=O)[C@H](CCN)NC(=O)[C@@H](N)[C@@H](C)O)CCNC(=O)[C@H]([C@@H](C)O)NC(=O)[C@H](CCN)NC(=O)[C@H](CCN)NC1=O  MIC (broth microdilution; multidrug-resistant, CAMHB with 0.002% polysorbate-80; 16 h, 37 °C): > 64 µg/mL
CC[C@H](C)CCCCC(=O)N[C@@H](CCN)C(=O)N[C@H](C(=O)N[C@@H](CCN)C(=O)N[C@H]1CCNC(=O)[C@H]([C@@H](C)O)NC(=O)[C@H](CCN)NC(=O)[C@H](CCN)NC(=O)[C@H](CC(C)C)NC(=O)[C@@H](CC(C)C)NC(=O)[C@H](CCN)NC1=O)[C@@H](C)O  MIC (AB1, multidrug-resistant): 2 µg/mL
NCCCC[C@@H]1NC(=O)[C@@H](Cc2c[nH]c3ccccc23)NC(=O)[C@H](Cc2c[nH]c3ccccc23)NC(=O)[C@@H](N)CSCc2ccc(cc2)CSC[C@@H](C(N)=O)NC(=O)[C@@H](Cc2c[nH]c3ccccc23)NC(=O)[C@H](Cc2c[nH]c3ccccc23)NC(=O)[C@@H](Cc2c[nH]c3ccccc23)NC(=O)[C@H](CCCCN)NC(=O)[C@@H](CCCCN)NC(=O)[C@H](CCCCN)NC(=O)[C@@H](CCCCN)NC1=O  MIC (19606): 16 µg/mL

A few entries again:
CC[C@H](C)[C@H](NC(=O)[C@H](C)NC(=O)[C@@H](NC(=O)[C@H](CC(=O)O)NC(=O)[C@H](CCCCN)NC(=O)[C@H](CO)NC(=O)[C@@H](NC(=O)[C@H](CC(N)=O)NC(=O)[C@H](C)NC(=O)[C@@H](NC(=O)[C@H](CCC(=O)O)NC(=O)[C@H](CCCCN)NC(=O)[C@@H](NC(=O)[C@@H](NC(=O)[C@H](Cc1c[nH]cn1)NC(=O)[C@H](CCCCN)NC(=O)[C@@H](NC(=O)[C@H](CCCCN)NC(=O)[C@H](CCCCN)NC(=O)[C@@H](NC(=O)[C@H](CC(C)C)NC(=O)[C@H](CCCCN)NC(=O)[C@H](CC(N)=O)NC(=O)[C@H](Cc1ccccc1)NC(=O)[C@H](CCCNC(=N)N)NC(=O)[C@H](CCCCN)NC(=O)[C@H](CCCNC(=N)N)NC(=O)[C@H](Cc1ccccc1)NC(=O)CN)C(C)C)C(C)C)[C@@H](C)O)[C@@H](C)CC)[C@@H](C)O)C(C)C)C(C)C)C(=O)N[C@H](C(=O)N[C@@H](C)C(=O)NCC(=O)N[C@@H](CO)C(=O)NCC(=O)N[C@H](C(=O)N[C@@H](C)C(=O)N[C@H](C(=O)NCC(=O)N[C@@H](C)C(=O)N[C@@H](C)C(=O)N[C@@H](CCSC)C(N)=O)C(C)C)C(C)C)C(C)C  MIC (broth microdilution; ATCC 19606, CAMHB): 4 µg/mL
